Measurements collected from several papers.
Every numbered part comes from another study and shows a few of its results, in no order. Changes are numbered by the printed parent chain.

Series 1
Target: PABPC1L2, full length, GST fusion (mouse, UniProt A0ABA7IW68)
Method: RNAcompete
Molecule type: RNA
Sample: in vitro
Concentration: 20 nM
Notes: 7-mer, probes averaged, single round
Reference: mean of 7-mers
Direction: higher = stronger binding
Quantity: 7-mer Z-score
Construct (chain): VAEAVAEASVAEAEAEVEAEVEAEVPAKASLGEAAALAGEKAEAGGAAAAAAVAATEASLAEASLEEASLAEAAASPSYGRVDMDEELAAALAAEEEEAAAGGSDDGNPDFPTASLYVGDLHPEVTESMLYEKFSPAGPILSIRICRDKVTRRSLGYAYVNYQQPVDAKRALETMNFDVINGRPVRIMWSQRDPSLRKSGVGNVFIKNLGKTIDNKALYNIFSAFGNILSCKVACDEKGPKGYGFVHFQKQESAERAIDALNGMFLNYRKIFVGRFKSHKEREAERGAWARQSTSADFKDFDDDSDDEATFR
Oligonucleotide = UCGUUCC; value = -0.505
Oligonucleotide = UCCGUGA; value = -0.228
Oligonucleotide = UUACUCU; value = -0.425
Oligonucleotide = UAGUCAC; value = -0.267
Oligonucleotide = ACACAGG; value = 0.247
Oligonucleotide = GUCGCUC; value = -0.325
Oligonucleotide = UCACGAA; value = 0.195
Oligonucleotide = UGCGGAC; value = 0.0841
Oligonucleotide = AGCGCGG; value = 0.017
Oligonucleotide = GAGGUGG; value = 0.207
Oligonucleotide = CUGGGAC; value = 0.0352
Oligonucleotide = CUGGAAA; value = 0.582
Oligonucleotide = UUUGAAC; value = -0.258
Oligonucleotide = AAUGGUA; value = 0.0497
Oligonucleotide = CCCUGAA; value = -0.195
Oligonucleotide = CGGGAUC; value = 0.00254

Series 2
Target: RNA binding protein fox-1 homolog 2, RRM domain, GST-SBP tag (RBFOX2, Homo sapiens, UniProt O43251-10, residues 100-194)
Method: RNA Bind-n-Seq
Molecule type: RNA
Sample: in vitro
Concentration: 365 nM
Notes: natural RNA segment, single round, ends assumed
Reference: no-protein control
Direction: higher = stronger binding
Quantity: RBNS enrichment (R)
Target sequence (chain): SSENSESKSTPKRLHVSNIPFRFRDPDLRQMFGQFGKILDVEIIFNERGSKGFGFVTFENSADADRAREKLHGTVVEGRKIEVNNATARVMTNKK
Oligonucleotide = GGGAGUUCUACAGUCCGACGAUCAAAGAUUUGAUAACUUUUCUAAUGCCUGACUAGUAAGUUUUAAAACAUCAUUCUUUAAAAGAAUAGUUUAAUACUUUUGGUUAUUCCAAUCUUCAAUGUUAACCCAAAGGUGGAAUUCUCGGGUGCCAA; value = 1.63
Oligonucleotide = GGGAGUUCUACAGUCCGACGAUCGUAUUCUUAAACCGCAUGACUAUUCAGAUGGCUACUGAGUUAUCAGUGGCCAUUUAUUAGCAUCAUAUUUAUUUGUAUUUUCUCAACAGAUGUUAAGGUACAACUGUGUUUGGAAUUCUCGGGUGCCAA; value = 0.356
Oligonucleotide = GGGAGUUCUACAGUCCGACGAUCCAUUAAGAAUGGAGUAGUAACUAGAGUGUUAUCUCAGUGCCUGUCUCAUAGUAUAGAAAUGACAAGCACUGCUGGCUAUAGAGAAAAUGUUAUAAAAAUUGUCAUUGAAUUGGAAUUCUCGGGUGCCAA; value = 0.929
Oligonucleotide = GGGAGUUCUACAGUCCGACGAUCCUUGAGAAGCUGUCACAAGGUCACUACAAGCCCAACCUGCCCCUUCACUUUGCCUUCCUGAGUUGGCCCCACUCCACUUGGGGGUCUGCAUUGGAUUGUUAGGGAUAGGCUGGAAUUCUCGGGUGCCAA; value = 0.374
Oligonucleotide = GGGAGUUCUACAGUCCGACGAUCGGUUGUUCCUGCUGCCAAGUGCUCUGUGACCAUGGCCUUUGCCUAGUGGAGGGAACUCAGUGGAGGAUGUGCCCAGCAGUGGCCGGGGCUGCUUCUGUAACCAAGGUCUGUGGAAUUCUCGGGUGCCAA; value = 0.428
Oligonucleotide = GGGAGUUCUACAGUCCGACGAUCCCCAGGGGGCAGCACAGCCGGCCCCCGGCCCACGUUUUCGGUGGAAAAUUAGAGUGAACAAGAACACCCCUGCCGACUCCCAGCCCGGCCAAAAAGACAAAACACAUAGAUGGAAUUCUCGGGUGCCAA; value = 0.506
Oligonucleotide = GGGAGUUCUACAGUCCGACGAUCCUACAGGCCUAAGUUAUUGUUUGCAUAAAAAGAAUCAUGUUCCCUGUGUACAUUUAAGAAAAAAACAAAAAAACGGAAAUGUCAGAAUUGUAUGGAAAUAAAACUUGUUUUGGAAUUCUCGGGUGCCAA; value = 0.512
Oligonucleotide = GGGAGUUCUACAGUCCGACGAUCAUGGUGUAUUCACUCUUGGAAAAUAUGUAAUAGUUGUGUAUCCAGAAUAUGUGUCUUCACCUGAAUAUUUAAUCUUUAUAUUUACAAAAAAAUAAGUUCCACAAGAUGGAUGGAAUUCUCGGGUGCCAA; value = 0.553

Series 3
Target: Histone acetyltransferase KAT6A, winged helix 2, GST fusion (KAT6A, Homo sapiens, UniProt Q92794, residues 85-181)
Method: protein binding microarray
Molecule type: double-stranded DNA, one strand shown
Sample: in vitro
Concentration: not given
Notes: 8-mer, flanks averaged, mean of 2 arrays, mostly near background
Reference: not given
Direction: higher = stronger binding
Quantity: E-score
Target sequence (chain): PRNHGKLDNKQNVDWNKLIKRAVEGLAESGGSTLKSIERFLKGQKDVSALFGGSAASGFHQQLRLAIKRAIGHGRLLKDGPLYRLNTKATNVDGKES
Oligonucleotide = ATAGGTTC; value = -0.19
Oligonucleotide = CTGATACC; value = -0.0423
Oligonucleotide = ACTGACGC; value = -0.0854
Oligonucleotide = AATATGGT; value = 0.0196
Oligonucleotide = CACCACGG; value = -0.178
Oligonucleotide = ATTGGGTC; value = 0.147
Oligonucleotide = ATTCGTCC; value = 0.227
Oligonucleotide = AACGCCCC; value = -0.0584
Oligonucleotide = AACACCTG; value = 0.0473
Oligonucleotide = TCGAGAAA; value = 0.114
Oligonucleotide = AAGGCCAT; value = -0.119
Oligonucleotide = GGTGGGCA; value = -0.0595
Oligonucleotide = CCTACAAC; value = 0.00323
Oligonucleotide = ACACGAAC; value = 0.177
Oligonucleotide = GTATTTGA; value = -0.0616
Oligonucleotide = GTTTCCCA; value = 0.113
Oligonucleotide = AGGCACAG; value = 0.0772
Oligonucleotide = CCACTAAG; value = -0.00334
Oligonucleotide = GAAGTAGC; value = 0.0897
Oligonucleotide = AAATATGC; value = 0.00261
Oligonucleotide = AGGTAACC; value = -0.166
Oligonucleotide = AACACTGT; value = -0.205
Oligonucleotide = ACGGCATG; value = 0.0669
Oligonucleotide = CGTTGTTC; value = -0.0559
Oligonucleotide = AACCGCGG; value = 0.196

Series 4
Target: Fragile X messenger ribonucleoprotein 1, C-terminal low-complexity region (Fmr1, Mus musculus, UniProt P35922)
Method: RNA Bind-n-Seq
Molecule type: RNA
Sample: in vitro
Concentration: 200 nM
Notes: whole 134-nt RNA, ends assumed
Together with: 150 mM LiCl
Reference: input library
Direction: higher = stronger binding
Quantity: log2 enrichment
Library: 7-deaza-guanosine replaces G
Oligonucleotide = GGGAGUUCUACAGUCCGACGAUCAGUCCUGUGCUACACAUCGUAUGUACCGAAUCGGGGAAAAAGGGGUGGGGAAAGGGGAAAGUAUUAUGUUACGCCGUUCGGAUCUGCACUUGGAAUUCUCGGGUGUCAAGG; value = -0.256
Oligonucleotide = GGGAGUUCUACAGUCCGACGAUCCUCAAGUCCUGUGCUACACAUCGUAUGUACCGAAUCGGGAAGGGGAAGGGAAGGAAAGUAUUAUGUUACGCCGUUCGGAUCUGCACUUCCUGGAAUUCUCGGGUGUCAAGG; value = -0.601
Oligonucleotide = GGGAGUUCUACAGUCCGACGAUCCCUGUGCUACACAUCGUAUGUACCGAAUCGGGAAAAAAAGGGAAAAAAAGGAAAAAAAGGGAAAGUAUUAUGUUACGCCGUUCGGAUCUGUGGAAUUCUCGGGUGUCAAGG; value = -0.0269
Oligonucleotide = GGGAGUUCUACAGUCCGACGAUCUCCUGUGCUACACAUCGUAUGUACCGAAUCGGGGUUUUUGGGGUUUUUUUGGGGAGGGGAAAGUAUUAUGUUACGCCGUUCGGAUCUGCAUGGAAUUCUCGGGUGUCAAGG; value = 0.191
Oligonucleotide = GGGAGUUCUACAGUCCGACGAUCUCAAGUCCUGUGCUACACAUCGUAUGUACCGAAUCGGGGAAGGGGAAGGAAGGGAAAGUAUUAUGUUACGCCGUUCGGAUCUGCACUUCCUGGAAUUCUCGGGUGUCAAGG; value = -1.05
Oligonucleotide = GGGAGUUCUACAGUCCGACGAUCCACAGACAACACGCACCCACACAGACACCGAGGGAAGGGGUUGGGAUGGGGACAGGGUGCACAGCAGGGCGGGGUAGGACCCCAGCCCCUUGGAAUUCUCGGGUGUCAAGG; value = 0.857
Oligonucleotide = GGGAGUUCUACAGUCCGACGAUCUCCAGUCUAGCUUUGGAGAAGCGCCAACCUGCUCACUGCCGCCGACCAGACUGCAUGUUUGGUUGUACUUGUUUGAAAAGAAAAGUUGUAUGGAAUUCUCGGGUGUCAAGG; value = -0.835
Oligonucleotide = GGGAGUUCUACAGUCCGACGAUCAGUCCUGUGCUACACAUCGUAUGUACCGAAUCGGGUUUUUGGUUUUUGGUUUUUGGGGAAAGUAUUAUGUUACGCCGUUCGGAUCUGCACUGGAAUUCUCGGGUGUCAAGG; value = -1.4

Series 5
Target: CCNB1, cyclin fold, Cln2 fusion (human)
Method: yeast growth competition, sequencing
Sample: yeast
Notes: strong parent motif
Reference: not given
Direction: higher = stronger binding
Quantity: normalised enrichment score
Parent: MASTL docking peptide (human); PMIAKNLMCELDE; partner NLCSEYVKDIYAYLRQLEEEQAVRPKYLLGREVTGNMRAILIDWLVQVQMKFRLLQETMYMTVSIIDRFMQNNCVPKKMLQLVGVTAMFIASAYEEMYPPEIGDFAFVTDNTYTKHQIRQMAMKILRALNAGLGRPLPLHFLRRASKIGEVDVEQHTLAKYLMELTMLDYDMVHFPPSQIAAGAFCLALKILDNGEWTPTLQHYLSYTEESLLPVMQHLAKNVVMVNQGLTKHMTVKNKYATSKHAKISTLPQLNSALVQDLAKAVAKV
Substitution = N6W; value = -0.103
Substitution = M8T; value = 0.278
Substitution = L11V; value = 0.0339
Substitution = M2H; value = 1.96
Substitution = N6L; value = 0.116
Substitution = L11R; value = -0.14
Substitution = M8E; value = 1.01
Substitution = M2T; value = 2.28
Substitution = M2W; value = 1.69
Substitution = N6Y; value = 0.181
Substitution = L7W; value = -0.00559
Substitution = I3T; value = 0.706
Substitution = M8H; value = 0.104
Substitution = C9H; value = 1.97
Substitution = M2G; value = 2.76
Substitution = K5H; value = 0.179
Substitution = D12S; value = 1.36
Substitution = C9R; value = 2.22
Substitution = L7G; value = -0.374
Substitution = E10G; value = 0.0867
Substitution = D12R; value = 0.411
Substitution = N6C; value = 0.832
Substitution = K5M; value = 0.633
Substitution = I3H; value = 0.00259
Substitution = D12T; value = 1.33

Repeated from above (series 5):
Substitution = M2W; value = 1.69
Substitution = N6Y; value = 0.181
Substitution = L7W; value = -0.00559
Substitution = I3T; value = 0.706
Substitution = M8H; value = 0.104
Substitution = C9H; value = 1.97
Substitution = M2G; value = 2.76
Substitution = K5H; value = 0.179
Substitution = D12S; value = 1.36
Substitution = C9R; value = 2.22
Substitution = L7G; value = -0.374
